{"data": "Measurements gathered from unrelated publications", "note": "A part holds a random share of what one study measured. Substitutions count along the parent as printed.", "UniProt Q9M1R4, sequence (whole entry, looked up)": "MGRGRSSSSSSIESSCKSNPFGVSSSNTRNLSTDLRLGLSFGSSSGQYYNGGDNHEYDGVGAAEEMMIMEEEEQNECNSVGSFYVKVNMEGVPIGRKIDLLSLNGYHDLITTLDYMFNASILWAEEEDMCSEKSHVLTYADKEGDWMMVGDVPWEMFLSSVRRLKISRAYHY", "UniProt Q9C5W9, sequence (whole entry, looked up)": "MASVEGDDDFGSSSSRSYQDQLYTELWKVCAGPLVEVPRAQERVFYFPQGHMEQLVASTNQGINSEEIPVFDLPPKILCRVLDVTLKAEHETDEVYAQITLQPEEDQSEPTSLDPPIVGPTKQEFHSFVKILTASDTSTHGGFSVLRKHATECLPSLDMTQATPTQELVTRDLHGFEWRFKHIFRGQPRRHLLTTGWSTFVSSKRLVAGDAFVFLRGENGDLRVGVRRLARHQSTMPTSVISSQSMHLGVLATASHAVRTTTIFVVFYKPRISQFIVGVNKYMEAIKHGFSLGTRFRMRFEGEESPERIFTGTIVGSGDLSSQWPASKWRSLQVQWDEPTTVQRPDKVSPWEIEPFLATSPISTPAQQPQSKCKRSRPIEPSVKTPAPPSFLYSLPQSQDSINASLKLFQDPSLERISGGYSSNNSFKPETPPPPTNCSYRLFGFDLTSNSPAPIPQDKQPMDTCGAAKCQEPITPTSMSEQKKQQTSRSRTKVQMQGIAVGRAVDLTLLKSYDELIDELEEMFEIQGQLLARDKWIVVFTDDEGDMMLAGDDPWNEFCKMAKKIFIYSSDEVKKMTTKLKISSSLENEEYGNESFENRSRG", "UniProt Q38829, sequence (whole entry, looked up)": "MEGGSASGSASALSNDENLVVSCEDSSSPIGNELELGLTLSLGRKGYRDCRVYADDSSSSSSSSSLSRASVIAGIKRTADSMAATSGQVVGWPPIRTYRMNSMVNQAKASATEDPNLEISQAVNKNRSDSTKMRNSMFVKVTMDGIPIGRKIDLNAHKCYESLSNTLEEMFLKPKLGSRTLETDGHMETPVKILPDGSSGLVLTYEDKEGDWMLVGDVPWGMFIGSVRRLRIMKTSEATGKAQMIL", "UniProt Q38832, sequence (whole entry, looked up)": "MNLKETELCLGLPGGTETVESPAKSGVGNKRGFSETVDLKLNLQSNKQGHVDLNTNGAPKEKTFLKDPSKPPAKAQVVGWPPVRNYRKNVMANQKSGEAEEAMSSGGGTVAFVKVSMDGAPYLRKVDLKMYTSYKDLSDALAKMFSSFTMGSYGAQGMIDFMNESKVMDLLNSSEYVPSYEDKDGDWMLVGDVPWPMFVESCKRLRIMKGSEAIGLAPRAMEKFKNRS", "UniProt P93830, sequence (whole entry, looked up)": "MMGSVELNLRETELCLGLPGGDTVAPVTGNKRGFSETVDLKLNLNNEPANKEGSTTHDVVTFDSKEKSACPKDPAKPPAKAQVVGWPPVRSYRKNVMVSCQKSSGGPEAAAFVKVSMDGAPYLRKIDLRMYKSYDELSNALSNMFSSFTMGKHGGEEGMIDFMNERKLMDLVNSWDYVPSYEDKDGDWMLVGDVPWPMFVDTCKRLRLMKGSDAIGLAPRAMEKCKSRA", "UniProt Q9C8N7, sequence (whole entry, looked up)": "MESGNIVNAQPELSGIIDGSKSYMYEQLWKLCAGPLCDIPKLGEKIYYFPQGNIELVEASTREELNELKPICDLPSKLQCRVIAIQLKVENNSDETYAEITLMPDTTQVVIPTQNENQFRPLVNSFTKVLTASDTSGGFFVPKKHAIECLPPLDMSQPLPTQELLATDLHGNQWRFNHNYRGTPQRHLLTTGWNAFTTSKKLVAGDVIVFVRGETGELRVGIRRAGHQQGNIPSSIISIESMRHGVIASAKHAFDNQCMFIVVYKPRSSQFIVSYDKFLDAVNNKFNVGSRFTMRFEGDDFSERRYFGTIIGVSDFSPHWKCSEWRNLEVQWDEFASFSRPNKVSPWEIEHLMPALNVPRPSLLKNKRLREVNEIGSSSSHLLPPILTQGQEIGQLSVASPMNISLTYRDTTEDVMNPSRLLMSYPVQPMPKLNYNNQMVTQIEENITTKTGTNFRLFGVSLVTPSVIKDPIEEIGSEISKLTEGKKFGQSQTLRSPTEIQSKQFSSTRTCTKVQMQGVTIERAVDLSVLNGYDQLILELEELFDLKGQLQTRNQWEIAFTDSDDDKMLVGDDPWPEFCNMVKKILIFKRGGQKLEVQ", "UniProt Q8RYC6, sequence (whole entry, looked up)": "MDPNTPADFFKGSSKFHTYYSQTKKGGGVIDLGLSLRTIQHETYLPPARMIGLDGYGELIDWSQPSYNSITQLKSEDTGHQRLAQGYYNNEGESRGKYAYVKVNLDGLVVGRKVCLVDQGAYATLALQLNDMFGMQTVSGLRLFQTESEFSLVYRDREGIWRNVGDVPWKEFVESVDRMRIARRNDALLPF", "UniProt Q9FKM7, sequence (whole entry, looked up)": "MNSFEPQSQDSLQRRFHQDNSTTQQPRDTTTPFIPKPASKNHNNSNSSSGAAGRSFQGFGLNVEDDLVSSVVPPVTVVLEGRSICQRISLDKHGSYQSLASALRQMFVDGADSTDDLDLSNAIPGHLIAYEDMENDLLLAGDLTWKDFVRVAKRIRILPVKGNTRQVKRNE"}
{"data": "Study 1", "Molecule": "IAA9 (Arabidopsis thaliana, UniProt Q38827)", "technique": "two-hybrid", "reading": "higher = firmer interaction", "UniProt Q38827, sequence (whole entry, looked up)": "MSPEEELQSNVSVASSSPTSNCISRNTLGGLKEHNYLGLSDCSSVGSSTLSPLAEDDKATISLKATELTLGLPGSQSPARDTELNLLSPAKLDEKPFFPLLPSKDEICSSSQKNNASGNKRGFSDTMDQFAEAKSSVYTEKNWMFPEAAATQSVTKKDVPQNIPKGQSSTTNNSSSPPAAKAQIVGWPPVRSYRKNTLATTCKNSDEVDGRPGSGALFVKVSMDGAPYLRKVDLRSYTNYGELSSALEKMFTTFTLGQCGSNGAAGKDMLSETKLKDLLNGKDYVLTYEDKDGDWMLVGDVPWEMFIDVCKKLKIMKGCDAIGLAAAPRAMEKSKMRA"}
{"partner": "ARF22 498-598 (Arabidopsis thaliana, UniProt Q9C8N7)", "baseline": "out of 2 tests", "positive tests": 2}
{"partner": "IAA30 (Arabidopsis thaliana, UniProt Q9M1R4)", "setting": "weak activation fusion", "baseline": "out of 0 tests", "positive tests": 0}
{"partner": "IAA11 (Arabidopsis thaliana, UniProt Q38829)", "setting": "weak activation fusion", "baseline": "out of 2 tests", "positive tests": 2}
{"partner": "ARF18 482-602 (Arabidopsis thaliana, UniProt Q9C5W9)", "baseline": "out of 4 tests", "positive tests": 1}
{"partner": "IAA14 (Arabidopsis thaliana, UniProt Q38832)", "baseline": "out of 2 tests", "positive tests": 2}
{"partner": "IAA32 (Arabidopsis thaliana, UniProt Q8RYC6)", "baseline": "out of 4 tests", "positive tests": 1}
{"partner": "IAA33 (Arabidopsis thaliana, UniProt Q9FKM7)", "baseline": "out of 2 tests", "positive tests": 0}
{"partner": "IAA17 (Arabidopsis thaliana, UniProt P93830)", "baseline": "out of 2 tests", "positive tests": 2}
{"data": "Study 2", "target": "CCNB1, cyclin fold, Cln2 fusion (human)", "technique": "yeast growth competition, sequencing", "medium": "yeast", "setting": "strong parent motif", "baseline": "not given", "reading": "higher = stronger binding", "parent": "viral docking peptide; TSVRRALFTGGSD"}
{"Change": "V3R", "normalised enrichment score": 0.813}
{"Change": "F8L", "normalised enrichment score": 0.223}
{"Change": "L7R", "normalised enrichment score": 0.418}
{"Change": "R4W", "normalised enrichment score": 0.0527}
{"Change": "F8A", "normalised enrichment score": 0.0961}
{"Change": "G10F", "normalised enrichment score": 1.07}
{"Change": "G11T", "normalised enrichment score": 2.45}
{"data": "Study 3", "target": "Sal-like protein 4, full length isoform B (SALL4, Homo sapiens, UniProt Q9UJQ4-2, residues 1-616)", "technique": "universal PBM", "molecule type": "double-stranded DNA, one strand shown", "medium": "in vitro", "concentration": "not given", "setting": "8-mer, flanks averaged, mean of replicates", "reading": "higher = stronger binding"}
{"Strand": "CACTCGAA", "E-score": 0.0711}
{"Strand": "AGTTTCAG", "E-score": -0.148}
{"Strand": "CGGCAGAA", "E-score": -0.211}
{"Strand": "AATTCCTG", "E-score": 0.0853}
{"Strand": "ATGCATTA", "E-score": 0.292}
{"Strand": "AGCCTGAA", "E-score": 0.0191}
{"Strand": "AATGTTCC", "E-score": 0.0463}
{"Strand": "ATAACCGA", "E-score": 0.213}
{"data": "Study 4", "target": "HLA class I histocompatibility antigen, A alpha chain, allele A*25:01 (Homo sapiens, UniProt P04439)", "read-out": "peptide-MHC binding", "molecule type": "peptide", "concentration": "concentration not given"}
{"Molecule": "FTARIIIFS", "binding": "inactive"}
{"Molecule": "TSACGIFLK", "binding": "inactive"}
{"Molecule": "MFKNFPFFK", "binding": "inactive"}
{"Molecule": "MTFPLHFRS", "binding": "inactive"}
{"Molecule": "SIKFKRKLM", "binding": "inactive"}
{"Molecule": "KLGDITLFL", "binding": "inactive"}
{"Molecule": "KLIDVSKCI", "binding": "inactive"}
{"Molecule": "ETKKRMDYF", "binding": "active"}
{"Molecule": "LAMLVLHQV", "binding": "inactive"}
{"Molecule": "KTRMEDYYL", "binding": "inactive"}
{"Molecule": "MFWKLPPWL", "binding": "inactive"}
{"Molecule": "WLGDVWQEK", "binding": "inactive"}
{"Molecule": "KVYWAGIEF", "binding": "inactive"}
{"Molecule": "KQMEDGHTL", "binding": "inactive"}
{"Molecule": "LEEDIQHFL", "binding": "inactive"}
{"Molecule": "GHMMVIFRL", "binding": "inactive"}
{"Molecule": "TELPLAYER", "binding": "inactive"}
{"Molecule": "FTWQHNYYL", "binding": "inactive"}
{"note": "Excerpt of the above (study 1):"}
{"partner": "IAA30 (Arabidopsis thaliana, UniProt Q9M1R4)", "setting": "weak activation fusion", "baseline": "out of 0 tests", "positive tests": 0}
{"partner": "IAA11 (Arabidopsis thaliana, UniProt Q38829)", "setting": "weak activation fusion", "baseline": "out of 2 tests", "positive tests": 2}
{"partner": "ARF18 482-602 (Arabidopsis thaliana, UniProt Q9C5W9)", "baseline": "out of 4 tests", "positive tests": 1}
{"partner": "IAA14 (Arabidopsis thaliana, UniProt Q38832)", "baseline": "out of 2 tests", "positive tests": 2}
{"partner": "IAA32 (Arabidopsis thaliana, UniProt Q8RYC6)", "baseline": "out of 4 tests", "positive tests": 1}
{"partner": "IAA33 (Arabidopsis thaliana, UniProt Q9FKM7)", "baseline": "out of 2 tests", "positive tests": 0}
